Assay results collected from several papers.
Protocols differ between the studies behind these lines. ± gives the spread as reported.

| SMILES | cell line | test | test system | conditions | scale | endpoint | value |
| --- | --- | --- | --- | --- | --- | --- | --- |
| COC(=O)c1c(C)ncn1CC(c1c[nH]c2ccccc12)c1c[nH]c2ccccc12 | human primary fibroblasts | viability, MTS |  | 24 h |  | CC50 | > 20 µM |
| COc1c(O)c(C)cc2c1C(=O)c1c(cc(O)c(O)c1O)C2=O | HK-2 co-cultured with HepaRG | MTT |  | 66.67 µM, 48 h | baseline: untreated control | viability | 83 ± 7.89% |
| Cc1ccc(Cn2cc(C(=O)NN)c(=O)c3cc(Oc4ccccc4)ccc32)cc1 | MRC-5 | cytotoxicity |  |  |  | EC50 | > 64 µM |
| Cc1ccc(S(=O)(=O)Nn2c(N)c(-c3nc4ccccc4s3)c3[nH]nc(N)c3c2=O)cc1 | Huh7.5 |  |  | 72 h |  | maximum non-toxic concentration | 90 µg/mL |
| N#Cc1ccc(Nc2nc(N)cc(Oc3ccc(-c4cccc(F)c4)cc3)n2)cc1 | MT4 uninfected |  |  |  |  | CC50 | 19.6 ± 10.2 µM |
| CCCCc1oc2ccccc2c1C(=O)c1cc(I)c(OCCN(CC)CC)c(I)c1 | H9 human embryonic stem cell aggregates | qRT-PCR | 3D aggregates | 1 µM, 5 days, developmental toxicity model | direction not given | ALERT score | 0 |
| COc1cc2c(c(O)c1OC)C(=O)c1c(cc(C)c(O)c1OC)C2=O | HK-2 co-cultured with HepaRG | MTT |  | 16.67 µM, 48 h | baseline: untreated control | cell viability | 76.1 ± 6.06% |
| c1csc(CNc2cc[nH]n2)c1 | human peripheral blood lymphocytes, female |  |  | 100 µg/mL, 20 h, without S9 |  | cells with structural aberrations | 0% |
| CSc1c(-c2nc3ccccc3s2)c(N)n(NS(=O)(=O)c2ccccc2)c(=O)c1C#N | Huh7.5 |  |  | 72 h |  | maximum non-toxic concentration | 100 µg/mL |
| Cc1noc(C)c1Cn1cc(N2C(=O)CN(Cc3cccc(O)c3)C2=O)cn1 | human blood lymphocytes |  |  | 823.8 µg/mL, 3 h |  | aberrant cells without gaps | 1.5% |
| CCCCCCCCCCCCCCCCOP(=O)([O-])OCC[N+](C)(C)C | human primary fibroblasts | viability, MTS |  | 24 h |  | CC50 | > 20 µM |
| COc1ccc(-c2nc(NS(=O)(=O)c3ccc(C)cc3)nc(N)c2-c2nc3ccccc3s2)cc1 | Huh7.5 | cytotoxicity |  | 72 h |  | maximum non-toxic concentration | 90 µg/mL |
| Cc1cc(C(=O)NC(C)(C)COc2cccc3c2C(N)=NS(=O)(=O)N3)cc(C)n1 | human peripheral blood lymphocytes | CBPI, concurrent micronucleus test |  | 1500 µg/mL, 4 h | baseline: vehicle control | cytotoxicity | 6% |
| Cc1ccc(-c2nc(N)nc(N)c2-c2nc3ccccc3s2)cc1 | Huh7.5 | cytotoxicity |  | 72 h |  | maximum non-toxic concentration | 110 µg/mL |
| N#Cc1ccc(Nc2nc(N)cc(Oc3c(F)cc(-c4cccc(F)c4)cc3F)n2)cc1 | MT4 uninfected |  |  |  |  | CC50 | 20.7 ± 2.62 µM |
| Cc1ccc(-c2nc(NS(=O)(=O)c3ccccc3)nc(N)c2-c2nc3ccccc3s2)cc1 | Huh7.5 | cytotoxicity |  | 72 h |  | maximum non-toxic concentration | 90 µg/mL |
| COc1c(O)c(C)cc2c1C(=O)c1c(O)cccc1C2=O | HK-2 co-cultured with HepaRG | MTT |  | 33.33 µM, 48 h | baseline: untreated control | viability | 82.2 ± 7.52% |
| N#Cc1ccc(Nc2nc(N)cc(Oc3ccc(-c4cccc(C#N)c4)cc3F)n2)cc1 | MT4 uninfected |  |  |  |  | CC50 | 221 ± 9.52 µM |
| O=C(O)c1cc(O)c2c(c1)C(=O)c1cccc(O[C@@H]3O[C@H](CO)[C@@H](O)[C@H](O)[C@H]3O)c1C2=O | HK-2 co-cultured with HepaRG | MTT |  | 133.33 µM, 24 h | baseline: untreated control | cell viability | 89.5 ± 6.51% |
| O=C(CNc1nc(NS(=O)(=O)c2ccccc2)ncc1-c1nc2ccccc2s1)c1ccc(Cl)cc1 | Huh7.5 | cytotoxicity |  | 72 h |  | maximum non-toxic concentration | 110 µg/mL |
| N#Cc1ccc(Nc2nc(N)cc(Oc3ccc(-c4cccc(C#N)c4)cc3)n2)cc1 | MT4 uninfected |  |  |  |  | CC50 | > 256 µM |
| COc1c(O)c(C)cc2c1C(=O)c1c(ccc(O)c1O)C2=O | HK-2 co-cultured with HepaRG | MTT |  | 133.33 µM, 24 h | baseline: untreated control | viability | 83.7 ± 13.5% |

| SMILES | cell line | test | test system | conditions | scale | endpoint | value |
| --- | --- | --- | --- | --- | --- | --- | --- |
| COc1ccc2c(Cc3ccccc3F)c3n(c(=O)c2c1OC)CCc1cc2c(cc1-3)OCO2 | CHO-K1 | cytotoxicity, CCK-8 |  | 24 h |  | IC50 | 12.1 µM |
| N#Cc1ccc(Nc2nc(N)cc(Oc3ccc(-c4ccc(C#N)cc4)c(F)c3F)n2)cc1 | MT4 uninfected |  |  |  |  | CC50 | > 45 µM |
| CCCCC(CC)COC(=O)CC(C(=O)OCC(CC)CCCC)S(=O)(=O)O (centres unmarked) | THP-1 | MTT |  | 50 µM |  | cytotoxicity | not toxic |
| COC[C@@H](CC(C)C)NC(=O)c1ccc(C)c(C)c1 | primary human lymphocytes | measured: structural aberrations |  | 158 µg/mL, 20 h, without S9 |  | cells with aberrations | 0% |
| CC(=O)C1=C(O)C(=O)N(c2ccc(Cl)cc2F)[C@@H]1C1CCCCC1 | THP-1 | Hoechst/PI staining |  | 10 µM, 5 h, with: 10 nM CCL2 |  | viability | no effect |
| CCCCCCCCN(CCC(=O)Nc1ccccc1)C(=O)[C@H]1CCCN1 | Lmna G609G/G609G mouse fibroblasts | MTT |  | 2 µM, 72 h | baseline: vehicle-treated wild type | viability | 80 ± 7% |
| CCn1c(=O)/c(=C2\Sc3cc(Cl)ccc3N2C)s/c1=C\c1scc[n+]1Cc1ccccc1 | MYBPC3-mutant iPSC cardiomyocytes | cell viability |  | 24 h |  | EC50 | > 60 µM |
| COc1cc2c(c(O)c1OC)C(=O)c1c(cc(C)c(O[C@@H]3O[C@H](CO)[C@@H](O)[C@H](O)[C@H]3O)c1OC)C2=O | HK-2 co-cultured with HepaRG | MTT |  | 66.67 µM, 48 h | baseline: untreated control | cell viability | 97.6 ± 4.78% |
| N#Cc1ccc(Nc2nc(N)cc(Oc3ccc(-c4ccccc4F)cc3F)n2)cc1 | MT4 uninfected |  |  |  |  | CC50 | 19.9 ± 7.82 µM |
| C/C(O)=C(\C#N)C(=O)Nc1ccc(C(F)(F)F)cc1 | SIRC |  | culture medium | 10 µM, 48 h |  | free drug concentration | 2.6 µM |
| CCOC(=O)c1c(C)ncn1CC(c1cn(C)c2ccc([N+](=O)[O-])cc12)c1cn(C)c2ccc([N+](=O)[O-])cc12 | human primary fibroblasts | viability, MTS |  | 24 h |  | CC50 | > 20 µM |
| N#Cc1ccc(Nc2nc(N)cc(Oc3ccc(-c4ccc(C#N)cc4)cc3C(F)(F)F)n2)cc1 | MT4 uninfected |  |  |  |  | CC50 | 66.4 µM |
| Cc1ccc(S(=O)(=O)Nc2ncc(-c3nc4ccccc4s3)c(N)n2)cc1 | Huh7.5 | cytotoxicity |  | 72 h |  | maximum non-toxic concentration | 110 µg/mL |
| Cc1cc(Nc2ccc(S(F)(F)(F)(F)F)cc2)n2nc(C(C)(F)F)nc2n1 | SIRC |  | culture medium | 5 µM, 48 h |  | free drug concentration | 0.6 µM |
| Cc1ccc(S(=O)(=O)Nn2c(N)c(C#N)cc(C#N)c2=O)cc1 | Huh7.5 |  |  | 72 h |  | maximum non-toxic concentration | 90 µg/mL |
| CSc1nc(NS(=O)(=O)c2ccccc2)nc(N)c1-c1nc2ccccc2s1 | Huh7.5 | cytotoxicity |  | 72 h |  | maximum non-toxic concentration | 90 µg/mL |
| CC(=O)c1c(C)cc2cc(O)cc(O[C@@H]3O[C@H](CO)[C@@H](O)[C@H](O)[C@H]3O)c2c1O | HK-2 co-cultured with HepaRG | MTT |  | 16.67 µM, 24 h | baseline: untreated control | cell viability | 152 ± 14.3% |
| CCCCc1oc2ccc(NS(C)(=O)=O)cc2c1C(=O)c1ccc(OCCCN(CCCC)CCCC)cc1 | H9 human embryonic stem cell aggregates | qRT-PCR | 3D aggregates | 0.5 µM, 5 days, developmental toxicity model | direction not given | ALERT score | 11 |
| CCOC(=O)c1cc(C#N)c(=O)n(NS(=O)(=O)c2ccccc2)c1N | Huh7.5 |  |  | 72 h |  | maximum non-toxic concentration | 90 µg/mL |
| Cc1cc(O)c2c(c1)C(=O)c1cccc(O)c1C2=O | HK-2 co-cultured with HepaRG | MTT |  | 16.67 µM, 24 h | baseline: untreated control | viability | 92.4 ± 5.77% |
| N#Cc1ccc(Nc2nc(N)cc(Oc3c(F)cc(-c4ccc(C#N)c(F)c4)cc3F)n2)cc1 | MT4 uninfected |  |  |  |  | CC50 | 96.6 ± 38.1 µM |
| Nc1nc(NS(=O)(=O)c2ccccc2)ncc1-c1nc2ccccc2s1 | Huh7.5 | cytotoxicity |  | 72 h |  | maximum non-toxic concentration | 100 µg/mL |

Some of these lines once more:
| SMILES | cell line | test | test system | conditions | scale | endpoint | value |
| --- | --- | --- | --- | --- | --- | --- | --- |
| O=C(CNc1nc(NS(=O)(=O)c2ccccc2)ncc1-c1nc2ccccc2s1)c1ccc(Cl)cc1 | Huh7.5 | cytotoxicity |  | 72 h |  | maximum non-toxic concentration | 110 µg/mL |
| N#Cc1ccc(Nc2nc(N)cc(Oc3ccc(-c4cccc(C#N)c4)cc3)n2)cc1 | MT4 uninfected |  |  |  |  | CC50 | > 256 µM |
| COc1c(O)c(C)cc2c1C(=O)c1c(ccc(O)c1O)C2=O | HK-2 co-cultured with HepaRG | MTT |  | 133.33 µM, 24 h | baseline: untreated control | viability | 83.7 ± 13.5% |
| COc1ccc2c(Cc3ccccc3F)c3n(c(=O)c2c1OC)CCc1cc2c(cc1-3)OCO2 | CHO-K1 | cytotoxicity, CCK-8 |  | 24 h |  | IC50 | 12.1 µM |
